Assay results from different studies.
Every numbered part comes from another study and shows a few of its results, in no order.
Sequence of UniProt P61075 (whole entry, looked up): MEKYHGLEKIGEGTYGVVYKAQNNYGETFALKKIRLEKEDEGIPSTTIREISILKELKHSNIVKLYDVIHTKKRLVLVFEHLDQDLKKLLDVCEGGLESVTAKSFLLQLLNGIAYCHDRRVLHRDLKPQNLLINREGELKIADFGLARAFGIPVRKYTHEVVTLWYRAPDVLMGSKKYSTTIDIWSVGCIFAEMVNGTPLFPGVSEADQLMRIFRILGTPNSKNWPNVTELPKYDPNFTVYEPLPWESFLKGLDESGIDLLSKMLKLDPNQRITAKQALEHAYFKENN
Sequence of UniProt P9WI81 (whole entry, looked up): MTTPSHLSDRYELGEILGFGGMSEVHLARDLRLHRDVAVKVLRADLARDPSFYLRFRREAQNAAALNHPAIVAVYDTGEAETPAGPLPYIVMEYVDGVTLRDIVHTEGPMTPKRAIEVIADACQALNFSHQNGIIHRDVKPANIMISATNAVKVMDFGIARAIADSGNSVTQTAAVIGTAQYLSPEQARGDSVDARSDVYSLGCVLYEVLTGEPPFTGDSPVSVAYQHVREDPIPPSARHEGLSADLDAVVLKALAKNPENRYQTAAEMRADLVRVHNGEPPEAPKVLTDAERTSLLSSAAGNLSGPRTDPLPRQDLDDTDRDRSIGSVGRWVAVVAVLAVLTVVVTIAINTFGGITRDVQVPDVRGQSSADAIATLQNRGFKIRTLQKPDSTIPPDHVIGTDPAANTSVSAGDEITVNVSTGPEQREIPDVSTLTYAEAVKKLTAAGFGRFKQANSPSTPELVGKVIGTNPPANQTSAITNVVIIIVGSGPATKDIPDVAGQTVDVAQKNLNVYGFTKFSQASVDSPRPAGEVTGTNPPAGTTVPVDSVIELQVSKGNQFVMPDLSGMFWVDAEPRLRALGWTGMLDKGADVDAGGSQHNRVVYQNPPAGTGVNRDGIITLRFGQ

Study 1
Target: Calcium/calmodulin-dependent protein kinase type II subunit alpha (CAMK2A, Homo sapiens, UniProt Q9UQM7)
Sequence of UniProt Q9UQM7 (whole entry, looked up): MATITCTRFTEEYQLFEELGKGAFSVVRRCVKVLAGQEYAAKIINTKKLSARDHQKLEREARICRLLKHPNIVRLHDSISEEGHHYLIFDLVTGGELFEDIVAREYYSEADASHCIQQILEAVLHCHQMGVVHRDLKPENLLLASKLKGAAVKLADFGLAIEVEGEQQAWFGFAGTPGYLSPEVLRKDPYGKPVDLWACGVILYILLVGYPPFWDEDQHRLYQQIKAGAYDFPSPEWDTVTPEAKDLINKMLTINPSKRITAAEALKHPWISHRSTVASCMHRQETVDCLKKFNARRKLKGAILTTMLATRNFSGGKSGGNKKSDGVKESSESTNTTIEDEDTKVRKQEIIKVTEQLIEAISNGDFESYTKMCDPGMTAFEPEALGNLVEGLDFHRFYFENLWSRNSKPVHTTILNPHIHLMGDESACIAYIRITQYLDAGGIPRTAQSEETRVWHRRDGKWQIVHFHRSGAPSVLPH
Read-out: enzyme activity
Action: inhibitor
Concentration: 10 µM
Compound | inhibition
C=C(C)[C@@H]1CC=C(C=O)CC1 | -33%
CC(C)N(CCNC(=O)CN1CCCC1=O)C(C)C | -2%
NCC(CC(=O)O)c1ccc(Cl)cc1 (stereo not shown) | -4%
COc1cc2c(cc1O)[C@@H]1Cc3ccc(OC)c(OC)c3CN1CC2 | -16%
C=CC[C@]1(O)CC[C@H]2[C@@H]3CCC4=CCCC[C@@H]4[C@H]3CC[C@@]21C | -8%
CCC1=C[C@@H]2[C@H](C1)C[C@]2(CN)CC(=O)O | -6%
N#Cc1nn(-c2c(Cl)cc(C(F)(F)F)cc2Cl)c(N)c1[S+]([O-])C(F)(F)F (stereo not shown) | -9%
CCCCCCCCCCCCCC(=O)OC[C@H](COP(=O)(O)OCCN)OC(=O)CCCCCCCCCCCCC | -11%
CCCCC(CC)COC(=O)c1ccccc1C(=O)OCC(CC)CCCC (stereo not shown) | 17%
CC1=C2C(=O)[C@H]3[C@@H](CC=C4C[C@@H](O)CC[C@@]43C)[C@@H]2CC[C@]12O[C@@H]1C[C@H](C)CN[C@H]1[C@H]2C | -23%

Study 2
Structure (SMILES): COc1ccc(-c2c(Nc3ccccn3)[nH]c3c(C4=CCCCC4)c(-c4ccccc4)nn3c2=O)cc1
Species: patients, advanced malignancies
Route: oral
Dose: dose not given
conditions | patients with adverse event [%]
treatment-emergent Hyperglycaemia | 10
treatment-emergent Dyspnoea | 20
treatment-emergent Anxiety | 10
grade 3 or higher Sepsis | 5
grade 3 or higher Dyspnoea | 7.5
treatment-emergent Fatigue | 42.5
grade 3 or higher Thrombocytopenia | 5
grade 3 or higher Pneumonia | 7.5
treatment-emergent Vomiting | 17.5
treatment-emergent Nausea | 32.5
treatment-emergent Diarrhoea | 20
grade 3 or higher Anaemia | 10
treatment-emergent Pyrexia | 12.5

Study 3
Target: CRBN/Zinc finger protein Helios (Homo sapiens, UniProt Q96SW2+Q9UKS7)
Sequence of UniProt Q96SW2 (whole entry, looked up): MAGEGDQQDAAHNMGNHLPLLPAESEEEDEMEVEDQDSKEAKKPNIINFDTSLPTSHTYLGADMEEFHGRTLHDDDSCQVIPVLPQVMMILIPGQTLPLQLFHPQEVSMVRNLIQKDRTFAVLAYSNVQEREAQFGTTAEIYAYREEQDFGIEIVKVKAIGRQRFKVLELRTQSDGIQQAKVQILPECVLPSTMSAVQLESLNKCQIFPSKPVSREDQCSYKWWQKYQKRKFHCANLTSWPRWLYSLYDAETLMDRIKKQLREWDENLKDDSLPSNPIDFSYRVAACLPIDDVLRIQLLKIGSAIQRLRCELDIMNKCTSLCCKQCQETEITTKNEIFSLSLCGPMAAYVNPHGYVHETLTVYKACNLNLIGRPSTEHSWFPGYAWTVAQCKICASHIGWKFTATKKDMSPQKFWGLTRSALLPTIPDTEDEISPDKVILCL
Sequence of UniProt Q9UKS7 (whole entry, looked up): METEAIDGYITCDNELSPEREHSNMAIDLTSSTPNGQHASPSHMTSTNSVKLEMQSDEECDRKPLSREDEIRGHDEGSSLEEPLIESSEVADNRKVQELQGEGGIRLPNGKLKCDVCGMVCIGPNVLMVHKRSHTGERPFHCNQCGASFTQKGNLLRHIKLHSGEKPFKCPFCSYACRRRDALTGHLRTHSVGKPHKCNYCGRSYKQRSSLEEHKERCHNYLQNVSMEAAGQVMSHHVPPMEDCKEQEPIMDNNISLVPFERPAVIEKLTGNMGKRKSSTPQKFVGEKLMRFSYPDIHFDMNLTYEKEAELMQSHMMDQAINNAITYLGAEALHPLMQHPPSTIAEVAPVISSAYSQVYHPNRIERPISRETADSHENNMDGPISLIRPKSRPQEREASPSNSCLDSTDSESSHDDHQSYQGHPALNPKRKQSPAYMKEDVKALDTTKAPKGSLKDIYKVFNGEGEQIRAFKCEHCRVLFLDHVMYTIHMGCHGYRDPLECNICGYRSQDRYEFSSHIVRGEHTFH
Action: degrader
Method: HiBiT
Cells: HEK293
Concentration: 41.15 nM
Compound | protein remaining
O=C1CCC(N2Cc3c(ccc4c3OCC43CCCN(Cc4ccccc4)CC3)C2=O)C(=O)N1 (stereo not shown) | 94.9%
O=C1CCC(N2Cc3c(ccc4c3OCC43CCN(Cc4ccccc4)C3)C2=O)C(=O)N1 (stereo not shown) | 78.3%
O=C1CCC(N2Cc3c(ccc4c3OCC43CCN(Cc4ccsc4)CC3)C2=O)C(=O)N1 (stereo not shown) | 36.8%
O=C1CCC(N2Cc3c(ccc4c3OCC43CCN(CC4CCCCC4)CC3)C2=O)C(=O)N1 (stereo not shown) | 57.3%
O=C1CCC(N2Cc3c(ccc4c3OCC43CCN(Cc4ccccc4)CC3(F)F)C2=O)C(=O)N1 (stereo not shown) | 67.8%
O=C1CCC(N2Cc3c(ccc4c3OCC43CCN(Cc4ccccn4)CC3)C2=O)C(=O)N1 (stereo not shown) | 60.9%

Mixed results
Read-out: cell-free assay
Method: competition with immobilised ligand
Concentration: 1 µM
Compound | target | remaining binding [%]
Cn1nc(C(F)(F)F)cc1-c1cnc(N2CCc3cc(S(=O)(=O)Nc4c(F)cc(Cl)cc4F)cc(N4CCCC4=O)c32)nc1 | Serine/threonine-protein kinase PknB (pknB, Mycobacterium tuberculosis, UniProt P9WI81) | 100
C[C@@H]1CN(c2cc(-c3nn(C)c4ccc(OC5(C)CC5)cc34)ncn2)C[C@H](C)O1 | Cyclin-dependent kinase 2 homolog (CRK2, Plasmodium falciparum, UniProt P61075) | 94

A few entries again (study 1):
Compound | inhibition
CC(C)N(CCNC(=O)CN1CCCC1=O)C(C)C | -2%
CCCCCCCCCCCCCC(=O)OC[C@H](COP(=O)(O)OCCN)OC(=O)CCCCCCCCCCCCC | -11%
CCCCC(CC)COC(=O)c1ccccc1C(=O)OCC(CC)CCCC (stereo not shown) | 17%
C=C(C)[C@@H]1CC=C(C=O)CC1 | -33%
